# Results gathered from unrelated publications.
# Compare with care: the assays were run in different laboratories. “And” joins repeats or separate records; there may be more than shown. ± marks the error that the study gave.
SMILES,test,test system,conditions,scale,quantity,value
Cl.[2H]C([2H])([2H])CC(=O)c1cnc(NC(=O)C2CC2)cc1Nc1cccc(-c2ncn(C([2H])([2H])[2H])n2)c1OC,,"human, fasted, multiple dose","oral, 10 mg once daily, tablet, day 14, geometric mean",,half-life,9.22 h
O=C(O)CSc1nnc(Br)n1-c1ccc(C2CC2)c2ccccc12,,"KM mouse, chronic hyperuricaemia model","dose not given, day 15",,body weight,28.6 g and 34 g and 28.8 g and 32.8 g and 36.8 g and 33.6 g
Cc1ccc([C@@H]2O[C@H](CO)[C@@H](O)[C@H](O)[C@H]2O)cc1Cc1ccc(-c2ccc(F)cc2)s1,refers to: inorganic phosphorus,Japanese type 2 diabetes patients,"200 mg, day 1, 24 h urine collection",baseline: baseline,urinary phosphate excretion change,-102 mg
NS(=O)(=O)c1ccc(CNc2nc(Nc3cccc(NC(=O)N4CCCC4)c3)ncc2C2CC2)cc1,PAMPA,PBS,"5 h, pH 7.4",,effective permeability,2.6 ×10⁻⁶ cm/s
CCCC[C@H](NC(=O)[C@@H](NC(=O)[C@H](CCC(=O)O)NC(=O)[C@]1(C)CCCC=CCCC[C@](C)(NC(=O)CNC(=O)[C@H](Cc2ccccc2)NC(=O)[C@H](CCCCN)NC(=O)[C@H](CCCCN)NC(=O)[C@H](C)NC(=O)[C@H](CO)NC(=O)[C@H](Cc2c[nH]cn2)NC(=O)[C@H](CC(C)C)NC(=O)[C@H](Cc2ccccc2)NC(=O)[C@H](CCCCN)NC(=O)CNC(=O)[C@@H](NC(=O)CN)[C@@H](C)CC)C(=O)N[C@@H](C)C(=O)N[C@@H](Cc2ccccc2)C(=O)N[C@@H](C(C)C)C(=O)N1)[C@@H](C)CC)C(=O)N[C@@H](CC(N)=O)C(=O)N[C@@H](CO)C(N)=O,HPLC C18 column,,,,retention time,13.6 min
CC(=O)O[C@H]1C(=O)[C@@]2(C)[C@H]([C@H](OC(=O)c3ccccc3)[C@]3(O)C[C@H](OC(=O)[C@H](O)[C@@H](NC(=O)c4ccccc4)c4ccccc4)C(C)=C1C3(C)C)[C@]1(OC(C)=O)CO[C@@H]1C[C@@H]2O,refers to: lymphocyte count decreased,patients with advanced solid tumours,"intravenous, dose not given, grade 1 and 2, possibly related to drug",,adverse event incidence,15%
O=C(Nc1cnccc1Cl)N1CCN(Cc2ccc3c(c2)OC(F)(F)O3)CC1,,"healthy young women, plasma","oral, 100 mg once daily, day 1",,AUC(0-24),5740 ng·h/mL
CCc1cc(C(=O)NC)c2nccc(N3CCc4c(cc(Cn5ccnc5)cc4-c4cn(C)nc4C(F)(F)F)C3=O)c2c1,,Sprague Dawley rats,"oral, 100 mg/kg twice daily, 7 days",baseline: vehicle,blood CREA change,-6.5%
O=Cc1cc2c(cc1F)C(=O)N(C1CCC(=O)NC1=O)C2 (centres unmarked),,"male cynomolgus monkey, plasma","oral, 0.3 mg/kg of parent drug",,half-life,1.4 h
CC(=O)N[C@@H](CNC(=O)c1cc(NC(=O)c2cc(NC(=O)c3nc(NC(=O)c4nccn4C)cn3C)cn2C)cn1C)CC(=O)Nc1cc(C(=O)Nc2cc(C(=O)Nc3cc(C(=O)Nc4cc(C(=O)NCCCN(C)CCCNC(=O)c5cccc(C(=O)O)c5)n(C)c4)n(C)c3)n(C)c2)n(C)c1,dynamic light scattering,0.1% DMSO in PBS,25 °C,,critical aggregation concentration,4 µM
COc1cc(Nc2ncc3c(n2)-c2ccc(Cl)cc2C(c2c(F)cccc2OC)=NC3)ccc1C(=O)O,"refers to: Hyponatremia, grade 2","cancer patients, phase 1/2","oral, dose not given, with: pembrolizumab",,patients with adverse event,8%
CCCCOc1ccc([C@H]2CC[C@H](CCC)CC2)c(F)c1F,,"rat, fetus","1000 ng/mL in perfusate, middle dose, mixture of 21 LCMs",,fetal accumulation,0.427 ± 0.353 ng/g
CNCc1ccc(-c2[nH]c3cc(F)cc4c3c2CCNC4=O)cc1,,human patients,"oral, 40 mg once daily, grade 500 or higher",,incidence of AST/ALT increase,7.7%
CNC(=O)c1cc(Oc2ccc(NC(=O)Nc3cc(C(C)(C)C)nn3-c3ccc4ncccc4c3)c(F)c2)ccn1,refers to: worst grade 3,human,"oral, dose not given, cycles 1 and 2, High Cmax subgroup",,patients with nervous system disorder AE,6%
CCCCOC(=O)N1CCN(C(=O)[C@H](CP(=O)(O)O)NC(=O)c2cc(N3CC[C@H](OC)C3)nc(-c3ccccc3)n2)CC1,refers to: creatinine,"human, serum","16 mg, 24 h post-dose",,change from baseline,-0.1 ± 8 µmol/L
Oc1ccc(/C=C/c2cc(O)cc(O)c2)cc1,,"rat, azoxymethane-injected, blood","in vivo, 100 mg/kg, at sacrifice",,I-BIL level,0.03 mg/dL and 0.04 mg/dL
N#CCNC(=O)c1ccc(-c2ccnc(Nc3ccc(N4CCOCC4)cc3)n2)cc1,,"healthy volunteers, plasma","oral, dose not given, with: ritonavir multiple-dose",baseline: compound alone,Cmax increase,23%
Cc1cc(-c2nccc3c2ccn3CC(=O)Nc2ccc(-c3cnccn3)cn2)ccn1,,human,"SAD part, single 7 mg dose",,subjects with any serious TEAE,0%
CN[C@@H](C)C(=O)N[C@H]1CN(S(=O)(=O)c2cccc(S(=O)(=O)N3CC[C@H]4CC[C@@H](C(=O)NC(c5ccccc5)c5ccccc5)N4C(=O)[C@@H](NC(=O)[C@H](C)NC)C3)c2)CC[C@H]2CC[C@@H](C(=O)NC(c3ccccc3)c3ccccc3)N2C1=O,"LC-MS/MS, noncompartmental","human, plasma","30 mg, cycle 1 day 1",,median Tmax,0.52 h
CN1CCN(c2cccc3c2CCN(C(=O)/C=C/c2c(-n4cnnn4)ccc(Cl)c2F)[C@@H]3C(=O)Nc2ccc(C(=O)O)cc2)C(=O)C1,,healthy human subjects,"intravenous infusion, 10 mg/h, 2 h",,subjects with nausea,0%
NC1(C(=O)N[C@@H](CCO)c2ccc(Cl)cc2)CCN(c2nc[nH]c3nccc2-3)CC1,,metastatic CRPC patients,"320 mg b.i.d., any grade, treatment-related, with: enzalutamide 160 mg daily",,incidence of decreased appetite,66.7%
[11CH3]Oc1cccc(CCc2cc(O)c(=O)[nH]n2)c1,dynamic PET,"Sprague-Dawley rat, brain","0 to 60 min, baseline",,peak brain uptake,~0.2 SUV
Cc1cc(Nc2ncc(Cl)c(Nc3ccccc3S(=O)(=O)C(C)C)n2)c(OC(C)C)cc1C1CCNCC1,,FaSSIF,literature solubility over dose,,dose-adjusted solubility,1.12e-05 mL⁻¹
C[C@@H](N)C1CCN(S(=O)(=O)c2cccc3cnccc23)CC1,,healthy volunteers,"250 mg, fasted",,participants with serious TEAEs,0%
CC(C)(C(=O)N1CCOc2c(C#N)cncc2C1)C(F)F,refers to: gingival bleeding,"human, both sexes","oral, 20 mg once daily, 14 days, multiple ascending dose",,subjects with TEAE,0%
C=CC[C@@]1(C)NC(=O)CNC(=O)[C@H](Cc2c[nH]c3ccccc23)NC(=O)[C@H](CC(=O)O)NC(=O)[C@H](CCC(N)=O)NC(=O)[C@H](Cc2c[nH]c3ccccc23)NC(=O)[C@H](C(C)C)NC(=O)[C@@H](NC(=O)[C@@H](NC(C)=O)[C@@H](C)CC)CSSC[C@@H](C(=O)N[C@H](C(N)=O)[C@@H](C)O)NC(=O)[C@H](CCCNC(=N)N)NC(=O)[C@H](Cc2c[nH]cn2)NC1=O,"isocratic RP-HPLC, C18","32% acetonitrile, phosphate pH 7.4, 1% TFA",25 °C,,retention factor,1.366 ± 0.006
O=C(O)CCC(=O)O.[2H]C([2H])([2H])Oc1cc(C)c2[nH]ccc2c1CN1CC[C@@H](C2CC2)C[C@H]1c1ccc(C(=O)O)cc1,multiple ascending dose,healthy Chinese subjects,125 mg twice daily,,subjects with TEAE Acne,0%
COc1cc2c3c(n(CCCN4CCOCC4)c(=O)c2cc1OC)-c1cc2c(cc1C3=O)OCO2,,"beagle dog, male, plasma","intravenous infusion, 10 mg/m^2, 1 h infusion, vehicle 1",,Vz,225 ± 18 L/m²
Cc1cc(C(=O)NC(C)(C)COc2cccc3c2C(N)=NS(=O)(=O)N3)cc(C)n1,,"Sprague-Dawley rat, female, plasma","oral, 30 mg/kg",,dose-normalised AUC(0-last),1.26 ng·h/mL/mg/kg
C=CC(=O)NC1CCN(c2ncc3ncnc(Nc4ccc(Oc5ccc6c(c5)ncn6C)c(C)c4)c3n2)CC1,refers to: general and administration site (SOC),human male,"oral, dose not given, CTCAE on-treatment AEs",,adverse events incidence,6%
C=CCN1CC(=O)N2[C@@H](Cc3ccc(O)cc3F)C(=O)N(Cc3cccc(N4CC(N5CCN(CC)CC5)C4)n3)C[C@@H]2N1C(=O)NCc1ccccc1,,advanced solid tumour patients,"oral, 80 mg twice daily, grade ≥3, dose-escalation",,treatment-related nausea,0%
CC(C(=O)NCC(=O)NCC(CNC(=O)CNC(=O)C(C)N1CCN(CC(=O)[O-])CCN(CC(=O)[O-])CCN(CC(=O)[O-])CC1)(CNC(=O)CNC(=O)C(C)N1CCN(CC(=O)[O-])CCN(CC(=O)[O-])CCN(CC(=O)[O-])CC1)CNC(=O)CNC(=O)C(C)N1CCN(CC(=O)[O-])CCN(CC(=O)[O-])CCN(CC(=O)[O-])CC1)N1CCN(CC(=O)[O-])CCN(CC(=O)[O-])CCN(CC(=O)[O-])CC1.[Gd+3].[Gd+3].[Gd+3].[Gd+3] (centres unmarked),,"cynomolgus monkey, kidney medulla","dose not given, day 58",,lanthanide concentration,3.6 ± 1.2 nmol/g
C[C@@H](Nc1cc(F)cc(F)c1)c1cc(C(=O)N(C)C)cc2c(=O)cc(N3CCOCC3)oc12,,patients with advanced solid tumours,"oral, 120 mg twice daily continuous, monotherapy dose-expansion",,share of patients with dose reduction,0%
O=C(Nc1nc2cccc(-c3ccc(CN4CCS(=O)(=O)CC4)cc3)n2n1)C1CC1,,rheumatoid arthritis patients,"oral, 75 mg once daily, 4 weeks, TEAE regardless of relatedness",,patients with upper abdominal pain,0%
CCn1cc(C(=O)N2CCOCC2)c(=O)c2cc(NC3Cc4ccccc4C3)cnc21,,"human male, fed, plasma","oral, 900 mg twice daily, day 7, tablet, arithmetic mean",,AUC(0-12h),47700 ng·h/mL
CC(C)C[C@H](NC(=O)CNC(=O)c1cc(Cl)ccc1Cl)B(O)O,refers to: Hypophosphataemia,human newly diagnosed multiple myeloma,"oral, dose not given, maintenance, grade 3, onset cycle 17 or later",,treatment-emergent adverse events,0%
N#C[C@@]1(c2ccc3c(N)ncnn23)O[C@H](CO)[C@@H](O)[C@H]1O,,monkey plasma,100 µM,,fraction unbound,0.816
CNC(=O)c1ccc(-c2cnc3ncc(Cc4ccc5ncccc5c4)n3n2)cc1F,,"human, healthy subjects, plasma","oral, 200 mg single dose, adjusted geometric mean",,unbound AUC(0-t),181 ng·h/mL
O=C(N[C@H](Cc1c[nH]c2ccccc12)C(=O)Nc1ccncc1)c1ccc(N2CCN(c3ccc(F)cc3F)CC2)cc1F,,"Swiss Webster mouse, female, lung","oral, 50 mg/kg, 8 h, 20% HPβCD vehicle",,concentration,15.8 µM
C[C@]12C=CC(=O)C=C1CC[C@@H]1[C@@H]2[C@@H](O)C[C@@]2(C)[C@H]1CC[C@]2(O)C(=O)CO,,"human, plasma","oral, 20 mg prednisone single dose, with: lopinavir–ritonavir",,median Tmax,1 h
C[C@@H]1COCCN1c1cc(C2([S@](C)(=N)=O)CC2)nc(-c2cc[nH]c3nccc2-3)n1,,Japanese advanced solid tumour patients,"oral, 240 mg twice daily, any grade",,Pyelonephritis incidence,16.7%
CCN1CCN(Cc2ccc(NC(=O)c3ccc(C)c(NC(=O)c4cncc(-c5cccs5)c4)c3)cc2C(F)(F)F)CC1,,"C57BL/6 mice, epithelial lining fluid","intraperitoneal, 10 mg/kg",,mean residence time,2.92 h
Cc1cc(NC2CCN(C(=O)OC3CCN(C(=O)/C=C/CN(C)C)C3)CC2)n2ncc(C(C)C)c2n1 (centres unmarked),"Phase I dose escalation CTCAE v4.0, refers to: peripheral oedema",patients with advanced solid tumours,"dose not given, Total dosing grade 3 or higher",,patients with adverse event,0%
CC(C)[C@@H](CN1CC[C@@](C)(c2cccc(O)c2)[C@@H](C)C1)NC(=O)[C@H]1Cc2ccc(O)cc2CN1,,"Sprague-Dawley rat, plasma","intraperitoneal, 5 mg/kg",,AUCtotal,1320 ng·h/mL
CC1(C)CC[C@]2(NC(=O)C(C)(F)F)CC[C@]3(C)[C@H](C(=O)C=C4[C@@]5(C)C=C(C#N)C(=O)C(C)(C)[C@@H]5CC[C@]43C)[C@@H]2C1,,"human, plasma","oral, 150 mg, day 24 predose, geometric mean",,trough plasma concentration,36.9 ng/mL
CCc1nc(C(N)=O)c(Nc2ccc(N3CCC(N4CCN(C)CC4)CC3)c(OC)c2)nc1NC1CCOCC1,,"Japanese patients, plasma","oral, 40 mg, cycle 0 day -2, single dose, median",,AUC(0-24),492 ng·h/mL
CCCCCCOC(=O)NC(=N)c1ccc(NCc2nc3cc(C(=O)N(CCC(=O)OCC)c4ccccn4)ccc3n2C)cc1,,human,"oral, 75 mg, compound alone",,participants with TEAE dry skin,4.2%
Cc1c(-c2ccc(N3CCc4cccc(C(=O)Nc5nc6ccccc6s5)c4C3)nc2C(=O)O)cnn1CC12CC3(C)CC(C)(C1)CC(OCCNCC[C@H](O)CO)(C3)C2,,"beagle dog, male, anaesthetised","intravenous infusion, 0.01 mg/kg/min, 5 min",baseline: baseline,mean arterial pressure change,-3 mmHg
CC(C)(C)c1ccc(O)c(CN(Cc2cc(C(C)(C)C)ccc2O)C2CCC(NC(N)=O)CC2)c1 (centres unmarked),,human liver microsomes,"2000 ng/mL, 3 months, 4 °C, refrigerator storage",,recovery,99.33 ± 0.25%
O=C(CCCCCCC(=O)Nc1ccc(CC[18F])cc1)NO,,"athymic nu/nu male mice, LNCaP xenograft, blood","intravenous, 0.5 h",,tissue uptake,3.3 ± 0.4 %ID/g

# Some of these lines once more:
SMILES,test,test system,conditions,scale,quantity,value
COc1cc2c3c(n(CCCN4CCOCC4)c(=O)c2cc1OC)-c1cc2c(cc1C3=O)OCO2,,"beagle dog, male, plasma","intravenous infusion, 10 mg/m^2, 1 h infusion, vehicle 1",,Vz,225 ± 18 L/m²
Cc1cc(C(=O)NC(C)(C)COc2cccc3c2C(N)=NS(=O)(=O)N3)cc(C)n1,,"Sprague-Dawley rat, female, plasma","oral, 30 mg/kg",,dose-normalised AUC(0-last),1.26 ng·h/mL/mg/kg
C=CC(=O)NC1CCN(c2ncc3ncnc(Nc4ccc(Oc5ccc6c(c5)ncn6C)c(C)c4)c3n2)CC1,refers to: general and administration site (SOC),human male,"oral, dose not given, CTCAE on-treatment AEs",,adverse events incidence,6%
C=CCN1CC(=O)N2[C@@H](Cc3ccc(O)cc3F)C(=O)N(Cc3cccc(N4CC(N5CCN(CC)CC5)C4)n3)C[C@@H]2N1C(=O)NCc1ccccc1,,advanced solid tumour patients,"oral, 80 mg twice daily, grade ≥3, dose-escalation",,treatment-related nausea,0%
